Measurements from different studies.
Several values in a cell are separate wells, animals, samples, runs or records. ± gives the spread as reported.

The total protein of `CCc1ccc(CC/C=C/c2ccc3c(c2)C(=O)CC3)cc1` is reported as 63 g/L (Sprague-Dawley rat, female, serum; oral, 120 mg/kg/day, 14 days).
Under “serum alanine aminotransferase”, `[O-][S+]1CCc2nc(N3CCC(c4ncc(Cl)cn4)CC3)nc(NC3(CO)CCC3)c21` (centres unmarked) is recorded as 19.3 U/L (healthy male humans; 48 mg single dose, after last dose).
For `C[C@@H](O)[C@@H]1NC(=O)[C@H](CCCCN)NC(=O)[C@@H](Cc2c[nH]c3ccccc23)NC(=O)[C@H](Cc2ccccc2)NC(=O)[C@@H](NC(=O)[C@H](N)Cc2ccccc2)CSSC[C@@H](C(=O)N[C@H](CO)[C@@H](C)O)NC1=O`, “peripheral volume of distribution” read 16.1 L (population PK model; human, typical 75 kg; dose not given, weight exponent 1 fixed).
Under “treatment-emergent adverse events”, `COc1cc(N2CCC(N3CCN(C)CC3)CC2)ccc1Nc1ncnc(Nc2ccccc2S(=O)(=O)C(C)C)n1` is recorded as 7 number (percent) (measured: Vomiting; Japanese patients with solid tumours; oral, dose not given, all grades).
Under “concentration at steady state”, `CC[C@H](C)CCCCC(=O)N[C@@H](CCN)C(=O)N[C@H](C(=O)N[C@@H](CCN)C(=O)N[C@H]1CCNC(=O)[C@H]([C@@H](C)O)NC(=O)[C@H](CCN)NC(=O)[C@H](CCN)NC(=O)[C@H](CC(C)C)NC(=O)[C@@H](Cc2ccccc2)NC(=O)[C@H](CCN)NC1=O)[C@@H](C)O` is recorded as 3000 ng/mL (critically ill patients, AKI, plasma; intravenous, 150 mg/day, 6 h, median).
`Cn1c(-c2ccc(C(N)=O)cc2F)nnc1C(C)(C)Oc1c(F)cc(Cl)cc1F`: “musculoskeletal disorder TEAE” 0% (human; oral, 10 mg, single ascending dose).
With `CC(C)C[C@H](NC(=O)[C@H](CCCCN)NC(=O)OCC1c2ccccc2-c2ccccc21)C(=O)N[C@H](C(=O)N[C@@H](Cc1ccccc1)C(=O)N[C@@H](Cc1ccccc1)C(=O)N[C@@H](CCCCN)C(=O)NCC(=O)N[C@@H](Cc1ccccc1)C(=O)N[C@@H](C)C(=O)N[C@@H](Cc1c[nH]c2ccccc12)C(=O)N[C@@H](CC(N)=O)C(=O)N[C@H](C(=O)N[C@H]1CSSC[C@@H](C(=O)N[C@@H](Cc2c[nH]cn2)C(=O)N[C@@H](CCCNC(=N)N)C(=O)N[C@@H](CCCNC(=N)N)C(=O)N[C@@H](C)C(=O)N[C@@H](CC(N)=O)C(N)=O)NC(=O)[C@H](C(C)C)NC(=O)[C@H](CCCNC(=N)N)NC(=O)[C@H](C(C)C)NC(=O)CNC(=O)[C@H](CC(N)=O)NC(=O)[C@H](CCCNC(=N)N)NC(=O)[C@H](Cc2ccc(O)cc2)NC(=O)[C@H](C(C)C)NC1=O)C(C)C)C(C)C` the remaining peptide was 79.9% and 84.7% and 81.8% (HPLC; mouse mammary gland homogenate; 2560 µM, 4.00 h, 37 °C, 50 mg/mL tissue).
`C1=Cc2nc1cc1ccc([n-]1)c(-c1ccccc1)c1nc(cc3ccc([n-]3)c2-c2ccccc2)C=C1.CC(=O)[O-].[Mn+3]` has a plasma concentration of 27 ng/mL (LC-MS/MS; Sprague-Dawley rat, plasma; oral gavage, dose not given, 120 min, individual rat Rat2).
`CCN1[C@@H](C(=O)NC23CCC(C(=O)O)(CC2)CC3)[C@H](c2cccc(Cl)c2F)[C@]2(C(=O)Nc3cc(Cl)ccc32)C12CCCCC2` has a Fatigue incidence of 50% (patients with advanced solid tumours; oral, 200 mg).
The bound fraction of `CC(C)CC(=O)OC[C@H]1O[C@@](C#N)(c2ccc3c(N)ncnn23)[C@H](O)[C@@H]1O` is reported as 0.746 (plasma protein binding; dog plasma; 90 µM).
Under “serious adverse event incidence”, `COc1ccc(-c2c(-c3ccc(C#N)c(F)c3)nc(N3CCC(N)CC3)n(C)c2=O)cc1F` is recorded as 8% (measured: Thrombocytopenia; human patients; oral, dose not given, dose escalation, NG).
`Clc1cc2c(cc1Cl)Oc1c(ccc(Cl)c1Cl)O2` — result for “milk fat partition ratio”: 337 (cow whole milk; 2000 nM; reference: milk fat over skim milk).
For `O=C(Nc1ccccc1)C1CCN(C(=O)Oc2cccnc2)CC1`, “subjects with eye disorders” read 15.4% (adverse event reporting; healthy women; oral, 100 mg, 9 days).
The Cmax of `Cn1ncc(-c2nc(N[C@H]3CC[C@H](N)CC3)ncc2Cl)c1CC1CC1` is reported as 99 ng/mL (HPLC-MS/MS; patients, plasma; oral, 42 mg, day 1).
`CN1CCN(S(=O)(=O)c2cc([N+](=O)[O-])ccc2N(CCOS(C)(=O)=O)CCOS(C)(=O)=O)CC1` gave a hemoglobin of 180 g/L and 162 g/L and 148 g/L and 168 g/L (NOD/SCID mouse, naive, blood; intraperitoneal, 25 mg/kg, week 4).
For `O=C(O)CCCOc1ccc(F)cc1-c1cc(-c2ccccc2C(F)(F)F)n(-c2ccccc2)n1`, the organ weight was 2.06 ± 0.08 g (male Crl:CD(SD) rats, brain; intravenous, 25 µg/kg, 14 d).
`NC(=O)[C@H]1CCN(c2ncnc(N)c2F)C[C@@H]1N1CCC[C@@H](Nc2cc(Cl)cc(C(F)(F)F)c2)C1=O` — result for “grade ≥3 leukopenia”: 0% (B-cell malignancy patients; oral, 328 mg twice daily, dose).
Under “relative organ weight”, `O=S(=O)(Nc1ccccc1)c1ccc(NC(=S)Nc2ccccc2)cc1` is recorded as 3.06% (female mice, small intestine; oral, 80 mg/kg daily 14 days; reference: body weight).
`C[C@@H]1OC(=O)NN=C1c1ccc(-c2ccc(F)cc2)c(C(F)(F)F)c1` — result for “patients with adverse event”: 0% (phase I trial, measured: back pain worst grade 1; human patients; 20 mg loading then 1 mg daily).
For `COc1ccnc(C(=O)N[C@H]2COC(=O)[C@H](Cc3ccccc3)[C@@H](OC(=O)C(C)C)[C@H](C)OC2=O)c1OCOC(=O)C(C)C`, “DT50 whole system” read 0.34 days (Staffordshire loam sediment, aerobic dark; 20 °C).
`COc1cccc(Oc2ccccc2NC(=O)CNC(=O)c2cccc3ccccc23)c1` has an alkaline phosphatase of 127 U/L and 170 U/L and 120 U/L (esterase-deficient SCID mice, male; oral, 15 mg/kg/day, 14 days, toxicity study).
The Cmax of `CC(=O)c1c(C)c2cnc(Nc3ccc(C4CCN(CCS(C)(=O)=O)CC4)cn3)nc2n(C2CCCC2)c1=O` is reported as 192 ng/mL (human patients, plasma; oral, 75 mg twice daily, day 21 multiple doses, added: fulvestrant).
With `O=c1cc(-c2ccc(O)c(O)c2)oc2cc(O)cc(O)c12` the urinary recovery was 0.02 ± 0.01% (Sprague-Dawley rat, male, lean, urine; oral, 100 mg/kg neohesperidin, 48 h; reference: dose).
For `COc1ccc2nc3cc(Cl)ccc3c(Nc3cc(CN4CCCC4)c(O)c(CN4CCCC4)c3)c2n1`, the basophil count was 0.14 10⁹/L (mouse, blood; intraperitoneal, 28 mg/kg).
For `CO[C@H]1C[C@@H]2CC[C@@H](C)[C@@](O)(O2)C(=O)C(=O)N2CCCC[C@H]2C(=O)O[C@H]([C@H](C)C[C@@H]2CC[C@@H](OC(=O)NCCOCCOCCOCCOCCOCCOCCOCCOCCC(=O)N3CCc4cc(Cn5nc(-c6ccc7oc(N)nc7c6)c6c(N)ncnc65)ccc4C3)[C@H](OC)C2)C[C@@H](O)[C@H](C)/C=C(\C)[C@@H](O)[C@@H](OC)C(=O)[C@H](C)C[C@H](C)/C=C/C=C/C=C/1C`, the diarrhoea incidence was 50% (patients with advanced solid tumours; intravenous, 10 mg weekly, any grade).
For `CN1CC[C@@H](c2c(O)cc(O)c3c(=O)cc(-c4ccc(C(F)(F)F)cc4Cl)oc23)[C@@H]1CO`, “patients with adverse event” read 7.5% (measured: grade 3 febrile neutropenia; relapsed or refractory haematologic malignancy patients; oral, dose not given, phase dose escalation, all doses).
Under “incidence of administration site extravasation”, `C[C@@H](NC(=O)N1C(=O)[C@H](Cc2ccnc(N)c2)[C@H]1C(=O)O)C1CCCCC1` is recorded as 0% (healthy adult Chinese volunteers; continuous intravenous infusion, 1.0 mg/kg/h, 5-day infusion, CTCAE 5.0 grading).
`CC[C@H](C)[C@H](NC(=O)[C@H](Cc1ccccc1)NC(=O)[C@H](CCC(=O)O)NC(=O)[C@H](CCCNC(=N)N)NC(=O)[C@H](C)NC(=O)[C@H](C)NC(=O)[C@H](CCC(N)=O)NC(=O)[C@H](CCC(=O)O)NC(=O)[C@H](CCC(=O)O)NC(=O)[C@H](CC(C)C)NC(=O)[C@H](Cc1ccc(O)cc1)NC(=O)[C@H](CO)NC(=O)[C@H](CO)NC(=O)[C@@H](NC(=O)[C@H](CC(=O)O)NC(=O)[C@H](CO)NC(=O)[C@@H](NC(=O)[C@H](Cc1ccccc1)NC(=O)[C@@H](NC(=O)CNC(=O)[C@H](CCC(=O)O)NC(=O)[C@H](C)NC(=O)CCc1cnc[nH]1)[C@@H](C)O)[C@@H](C)O)C(C)C)C(=O)N[C@@H](C)C(=O)N[C@@H](Cc1c[nH]c2ccccc12)C(=O)N[C@@H](CC(C)C)C(=O)N[C@H](C(=O)N[C@@H](CCCNC(=N)N)C(=O)NCC(=O)N[C@@H](CCCNC(=N)N)C(=O)N[C@@H](CCCCNC(=O)COCCOCCNC(=O)COCCOCCNC(=O)CC[C@H](NC(=O)CCCCCCCCCCCCCCCCC(=O)O)C(=O)O)C(=O)NCC(=O)NCC(=O)N[C@@H](CO)C(=O)N[C@@H](CCCCNC(=O)[C@H](CCCCNc1c(NCCCCCN(O)C(=O)CCC(=O)NCCCCCN(O)C(=O)CCC(=O)NCCCCCN(O)C(C)=O)c(=O)c1=O)Nc1c(NCCCCCN(O)C(=O)CCC(=O)NCCCCCN(O)C(=O)CCC(=O)NCCCCCN(O)C(C)=O)c(=O)c1=O)C(=O)O)C(C)C` [zirconium-89 labelled] has a tissue uptake of 0.659 %ID/g (ex vivo gamma counting; male Sprague-Dawley rats, lung; intravenous, 1 nmol, 24 h).
Under “grade 3 Headache”, `COc1cc2c(Oc3ccc4[nH]c(C)cc4c3F)ccnc2cc1OCC1(N)CC1` is recorded as 0% (paediatric recurrent refractory sarcoma; 10 mg).
The tissue uptake of `C[C@@H]1NC(=O)[C@H](CCCCNC(=O)CO/N=C/C(=O)NCCCC[C@@H]2NC(=O)[C@@H](Cc3ccccc3)NC(=O)[C@H](CC(=O)O)NC(=O)CNC(=O)[C@H](CCCNC(=N)N)NC2=O)NC(=O)CNC(=O)[C@@H]2CCCN2C(=O)[C@H](CCCCNC(=O)CO/N=C/C(=O)NCCCC[C@@H]2NC(=O)[C@@H](Cc3ccccc3)NC(=O)[C@H](CC(=O)O)NC(=O)CNC(=O)[C@H](CCCNC(=N)N)NC2=O)NC(=O)[C@H](CCCCNC(=O)[C@H](CCCCN)NC(=O)[C@H](Cc2ccccc2)NC(=O)CNC(=O)CN2CCCNCCNCCCNCC2)NC(=O)[C@H](CCCCNC(=O)CO/N=C/C(=O)NCCCC[C@@H]2NC(=O)[C@@H](Cc3ccccc3)NC(=O)[C@H](CC(=O)O)NC(=O)CNC(=O)[C@H](CCCNC(=N)N)NC2=O)NC(=O)CNC(=O)[C@@H]2CCCN2C(=O)[C@H](CCCCNC(=O)CO/N=C/C(=O)NCCCC[C@@H]2NC(=O)[C@@H](Cc3ccccc3)NC(=O)[C@H](CC(=O)O)NC(=O)CNC(=O)[C@H](CCCNC(=N)N)NC2=O)NC1=O` [copper-64 labelled] is reported as 36.6 ± 3.6 %ID/g (normal mice, kidney; intravenous, 0.74 MBq, 3 h post-injection).
Under “patients with lipase increase”, `C=CCNc1c(O)cc2c(O)c1C[C@@H](C)C[C@H](OC)[C@H](O)[C@@H](C)/C=C(\C)[C@H](OC(N)=O)[C@@H](OC)/C=C\C=C(/C)C(=O)N2` is recorded as 0% (unresectable or metastatic sarcoma; intravenous, 500 mg/m^2, grade 3-4 lab change).
`Nc1nc2cc(-c3ccc4ncc(C(=O)N5CCOCC5)n4c3)ccc2o1`: “patients with adverse event” 3% (measured: Anemia; advanced solid tumour patients; dose not given).
For `N[C@@H]1c2ccccc2OC12CCN(c1cnc3c(N4CCCc5ncccc54)n[nH]c3n1)CC2`, “patients with any TEAE” read 100% (advanced solid tumour patients; oral, 100 mg once daily).
For `Cc1cc(C)nc(Nc2ncc(C(=O)NCCc3c(C)[nH]c4ccccc34)cn2)c1`, “maximal hepatic bioavailability” read 51% (human liver microsomes; 1 µM).
Under “enzyme contribution to clearance”, `CC1(C)[C@H](C(=O)O[C@H](C#N)c2cccc(Oc3ccccc3)c2)[C@@H]1C=C(Br)Br` is recorded as 0.37% (measured: CYP2C19; human, age 6 months, recombinant human CYP2C19; 0.1 µM).
`Cc1ccc(F)c2cc(C(=O)N[C@@H]3CCC[C@H](N4CC[C@H](N(C)S(C)(=O)=O)C4)C3)[nH]c12` has a plasma concentration of 590 ng/mL (CD1 mouse, plasma; oral, 30 mg/kg, 0.5 h).
Under “AUC(0-inf) geometric mean”, `C[C@]1(CO)Cc2ncn(-c3ccc(C#N)c(Cl)c3)c2C(=O)O1` is recorded as 2.33 µM·h (human, plasma; oral, 10 mg single dose, fasted).
`COc1ncnn2ccc(-c3cnc4nc(C)n(Cc5nnc([C@@H](C)F)o5)c4c3)c12` — result for “incidence of grade 1 nail discoloration”: 14.3% (human patients; oral, dose not given).

Repeated from above:
For `Cc1cc(C)nc(Nc2ncc(C(=O)NCCc3c(C)[nH]c4ccccc34)cn2)c1`, “maximal hepatic bioavailability” read 51% (human liver microsomes; 1 µM).
Under “enzyme contribution to clearance”, `CC1(C)[C@H](C(=O)O[C@H](C#N)c2cccc(Oc3ccccc3)c2)[C@@H]1C=C(Br)Br` is recorded as 0.37% (measured: CYP2C19; human, age 6 months, recombinant human CYP2C19; 0.1 µM).
`Cc1ccc(F)c2cc(C(=O)N[C@@H]3CCC[C@H](N4CC[C@H](N(C)S(C)(=O)=O)C4)C3)[nH]c12` has a plasma concentration of 590 ng/mL (CD1 mouse, plasma; oral, 30 mg/kg, 0.5 h).
Under “AUC(0-inf) geometric mean”, `C[C@]1(CO)Cc2ncn(-c3ccc(C#N)c(Cl)c3)c2C(=O)O1` is recorded as 2.33 µM·h (human, plasma; oral, 10 mg single dose, fasted).
`COc1ncnn2ccc(-c3cnc4nc(C)n(Cc5nnc([C@@H](C)F)o5)c4c3)c12` — result for “incidence of grade 1 nail discoloration”: 14.3% (human patients; oral, dose not given).
